Published values collected from several papers.
Lines come from different studies, so protocols differ. Values joined by “and” are separate records of one study, mostly repeats; a detail may differ.
Target: Eukaryotic translation initiation factor 2-alpha kinase 3 (EIF2AK3, Homo sapiens, UniProt Q9NZJ5)
Residues used in one study (Q9NZJ5 30-1116): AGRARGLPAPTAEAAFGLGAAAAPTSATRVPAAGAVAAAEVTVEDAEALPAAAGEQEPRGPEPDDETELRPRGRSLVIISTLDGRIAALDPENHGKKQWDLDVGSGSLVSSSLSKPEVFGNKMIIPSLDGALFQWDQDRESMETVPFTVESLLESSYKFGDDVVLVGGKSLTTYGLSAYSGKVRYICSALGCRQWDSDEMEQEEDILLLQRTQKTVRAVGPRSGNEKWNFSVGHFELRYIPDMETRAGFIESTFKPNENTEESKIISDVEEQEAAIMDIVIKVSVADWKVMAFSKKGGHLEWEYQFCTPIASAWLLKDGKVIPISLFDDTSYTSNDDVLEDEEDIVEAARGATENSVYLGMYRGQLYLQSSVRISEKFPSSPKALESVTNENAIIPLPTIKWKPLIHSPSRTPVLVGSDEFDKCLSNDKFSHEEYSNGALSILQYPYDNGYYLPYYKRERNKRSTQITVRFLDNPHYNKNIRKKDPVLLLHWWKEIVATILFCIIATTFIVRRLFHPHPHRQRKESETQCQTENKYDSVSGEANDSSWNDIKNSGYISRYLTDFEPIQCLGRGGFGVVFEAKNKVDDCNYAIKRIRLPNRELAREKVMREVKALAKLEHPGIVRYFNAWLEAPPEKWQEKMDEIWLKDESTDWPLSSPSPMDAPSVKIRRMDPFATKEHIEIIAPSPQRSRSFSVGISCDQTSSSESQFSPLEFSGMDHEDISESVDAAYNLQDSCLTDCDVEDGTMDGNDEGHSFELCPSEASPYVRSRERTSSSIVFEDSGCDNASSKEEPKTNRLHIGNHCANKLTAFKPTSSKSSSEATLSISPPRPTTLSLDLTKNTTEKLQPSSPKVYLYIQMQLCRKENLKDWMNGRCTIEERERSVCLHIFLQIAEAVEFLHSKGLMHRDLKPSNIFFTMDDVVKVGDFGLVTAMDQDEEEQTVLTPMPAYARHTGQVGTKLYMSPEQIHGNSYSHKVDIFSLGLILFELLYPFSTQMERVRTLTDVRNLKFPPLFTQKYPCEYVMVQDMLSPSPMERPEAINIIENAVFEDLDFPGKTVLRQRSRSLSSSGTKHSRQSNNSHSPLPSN

SMILES | assay | system | setting | scale | quantity | result
C=CC(=O)Nc1cccc(-c2cnc3[nH]cc(C(=O)NC(C)(C)C)c3n2)c1 | kinase activity |  | 0.1 µM |  | inhibition | 12% and -3%
COc1ccc(O)cc1-c1c[nH]c2ncc(-c3cncc(C(=O)N(C)C)c3)cc12 | binding, competition with immobilised ligand |  | 0.2 µM |  | inhibition | 6.39%
Cc1nc2c(F)cc(-c3nc(Nc4ccc(CNC(=O)CCCCCCC(=O)NO)cc4)ncc3F)cc2n1C(C)C | enzyme activity, inhibitor |  | 1 µM |  | inhibition | 14%
Cc1cccc(O[C@H]2CCC[C@@H](C(C)CNCc3ccncc3)C2)c1 (relative stereo) | enzyme activity, inhibitor |  | 10 µM |  | inhibition | -13%
CS(=O)(=O)Nc1cccc(-c2csc3cnc(Nc4ccc(N5CCN(CCCCCOc6cccc7c6C(=O)N(C6CCC(=O)NC6=O)C7=O)CC5)cc4)nc23)c1 (centres unmarked) | probe labelling, inhibitor, KiNativ chemoproteomics | MOLT-4 | 1 µM |  | inhibition | 14.3%
O=C(Nc1ccc(Oc2ncnc3[nH]cc(-c4ccccc4)c23)c(F)c1)c1c2n(n(-c3cc(F)ccc3F)c1=O)CCCC2 | enzyme activity, inhibitor |  | 0.5 µM |  | inhibition | 14%
COCC12C(=O)NC3C4(C(OC)CC1O)C1CC5(O)C(OC)C(O)C(OC(C)=O)(C1C5OC(=O)c1ccccc1)C3(O)C(OC)C24 (centres unmarked) | kinase activity, inhibitor, ProQinase kinase profiling |  | 25 µM | reference: control | remaining activity | 105%
CN1CC[C@@H](COc2cnc(C#N)cc2-c2ccn3nc(NC(=O)C4CC4)cc3c2)C1 | enzyme activity, inhibitor |  | 1 µM |  | inhibition | 0%
COc1ccc(NC(=O)Nc2ccc3c(c2)C(=O)N(C(C)CO)CC(C)C(CN(C)Cc2ccc4c(c2)OCO4)O3)cc1 (centres unmarked) | kinase activity, KinaseProfiler |  | 0.03 µM, species human | reference: control | remaining activity | 98%
CCn1cc(C(=O)O)c(=O)c2c(N)c(F)c(NC3CCCCC3)cc21 | kinase activity |  | 0.1 µM, with: ATP at Km |  | inhibition | -1.1%
O=C(Cc1ccc(OCc2ccccc2)cc1)NC1(C(=O)O)CCN(C(=O)c2ccc(-c3cccc(Cl)c3)cc2)CC1 | enzyme activity, inhibitor |  | 10 µM |  | activity vs control | 105%
